Assay results of several laboratories.
Numbered parts are unrelated; each lists some results of a single study.

Sample 1 — method: RNA Bind-n-Seq; molecule type: RNA; sample: in vitro; concentration: 365 nM; baseline: no-protein control; direction: higher = stronger binding
Target: RNA binding protein fox-1 homolog 2, RRM domain, GST-SBP tag (RBFOX2, Homo sapiens, UniProt O43251-10, residues 100-194)
Notes: natural RNA segment, single round, ends assumed
Constant ends, left off below: GGGAGUUCUACAGUCCGACGAUC … UGGAAUUCUCGGGUGCCAA
Construct (chain): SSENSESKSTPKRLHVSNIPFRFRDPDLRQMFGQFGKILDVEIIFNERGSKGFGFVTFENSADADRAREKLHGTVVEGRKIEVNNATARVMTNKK
Oligonucleotide	RBNS enrichment (R)
UUUCUCAGUGUGUGUAUUUCCUAAUUUAUUUACCUCUUUUUUUCCCCUUUCUUUCUUUUUUUUAAUUAAAGAGCAAAACUUUUUAUUACUUUGUAAUUUAAAAAACUGAA	0.807
UGGGCACCUCCUCCAUGGCUCUCAGGGGCCUUUCAUUUCUGUGGGAGGGGCAGAGAGGUAGGUGGCACAGAAGAUGGGGCUUUAUGCUUGUAAAUAUUGAUAGCACUGGC	0.612
GCCCAGCGCCGCCUUUUCACAUUUUUUGAGCCAUGGACAUGGGUUGUAAAAAUUUGUGGGGAGUAGGCUCCAGGAAGAGCCAGCAUCCCUGCCCCCGUUUCCCACCGGGG	0.442
UAUAAGCAAAUUAAGAAUUACUCAUUCAAAUUUUUCCAGUGUUAAUCGAUAAUAAAUGAUGGCUUGAUACACUACAGAAAGUGUAUUCUUGUUUAAAAGAUGUCUGAAAC	0.82
UUCAUGCCGGUAGAGGCUCAUUAAGUGAGGUCCUGGGCACCCCCCAAACAGGAAGUGUUUUCAGGCCCUUACAUGCUUAUCCUUAAGGUGAGUAGGUAUCUCAGCAGCAC	0.226
UGAGAUAGAUAGAUGGCAGAUAGAACAACAGACAGACAGAAGACAGGUAGGCAGCAGACAGACAGAUGACAGAUAGAUCUCCAUGGUAUGUUUUCCAUUUUCUUUUGUCA	0.807
CCUGGUGACCUUUGCUCUCGGCACCGGGCCUGUUUCCUUUGCUUUGAGUGCCUUUUUGAACGCUGCUCCACAGGGCCUGGGUUUUCUUGAGCUCUUCUGUCCAAAGAUGG	0.813
CCUGAAGAAGGGUGUGAAGGCUGAACAAUCAUGGAUUUUUCUGAUCAAUUGUGCUUUAGGAAAUUAUUGACAGUUUUGCACAGGUUCUUGAAAACGUUAUUUAUAAUGAA	0.392
UUUUUUAAAGAUAAAACUGCACAGAUGGGAGUGAGAGAUUUACCUCUGCUCCUUCCUCCUUCAGUGCAGCCCCUCUUGGGUGGUUUAUUGGGCAGGAGGCCACCAUCAUU	0.341
UGUCCUGAAGUUCUAACUGCCGAGCCUUACCUUCAUAGAAGGUCUUCACUGCCAGAGUGGGCAUCUUGCAUAGUAAGGGAUUCCAGAUUAGAUAUGAGUUGAGCACCCUG	0.514
AGGCAGCAUUGCUUGAACCCAGGAGGUGGAGGUUGCAGUGAGCCAAGAUCACACCACUGCACUCCAGCCUGGGCGACAGAGGGAGACACUGUCUCCAAAAGAAAGAAAUC	0.455
GUGCUGCGGCCUGUUCAUAUGCUCUCAUACUUUUUCAAAUCAUGAUGAGAAUUUUUCUCCUAUAUACUAAAUCCUCUUAAAGACUCAACUCUUUGUAGUUUUGUCAAAGA	0.9

Sample 2 — method: RNA Bind-n-Seq; molecule type: RNA; sample: in vitro; concentration: 1 µM; notes: whole 134-nt RNA, ends assumed; with: 150 mM KCl; baseline: input library; direction: higher = stronger binding
Target: Ras GTPase-activating protein-binding protein 1, C-terminal RGG region (G3BP1, Homo sapiens, UniProt Q13283)
UniProt Q13283, sequence (whole entry, looked up): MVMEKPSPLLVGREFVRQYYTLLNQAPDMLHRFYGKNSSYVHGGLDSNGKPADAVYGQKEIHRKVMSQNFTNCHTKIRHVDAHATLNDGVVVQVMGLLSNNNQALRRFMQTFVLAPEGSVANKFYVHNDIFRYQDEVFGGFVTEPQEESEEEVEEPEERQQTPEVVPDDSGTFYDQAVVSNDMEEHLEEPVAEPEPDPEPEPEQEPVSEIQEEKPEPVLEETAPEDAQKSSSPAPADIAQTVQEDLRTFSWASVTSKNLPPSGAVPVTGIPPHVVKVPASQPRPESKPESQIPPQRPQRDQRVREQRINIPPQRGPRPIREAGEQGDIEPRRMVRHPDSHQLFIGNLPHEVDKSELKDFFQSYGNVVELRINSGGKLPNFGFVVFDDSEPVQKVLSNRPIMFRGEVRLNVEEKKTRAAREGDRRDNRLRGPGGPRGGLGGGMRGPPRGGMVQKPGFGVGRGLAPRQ
Constant ends, left off below: GGGAGUUCUACAGUCCGACGAUC … UGGAAUUCUCGGGUGUCAAGG
Oligonucleotide	log2 enrichment
AAGUCCUGUGCUACACAUCGUAUGUACCGAAUCGGGGAGGGGAAAGGGGAAAGGGGAAAGUAUUAUGUUACGCCGUUCGGAUCUGCACUU	3.37
ACCAUGCAGGUGGGCAUCUUUGGGAAGUGGGGCAAGGGGGGGAUAGGGAAAGGGGUAACACUUUGGGAACAGGUGGUCCCAGGUCGUUUC	-1.02
CAAGUCCUGUGCUACACAUCGUAUGUACCGAAUCGGAAAAAAAGGUUUGGAAAGGAAAGUAUUAUGUUACGCCGUUCGGAUCUGCACUUC	-2.15
GUCCUGUGCUACACAUCGUAUGUACCGAAUCAAAUUUAAACCCCCCCAAAUUUUUAAAAAAGUAUUAUGUUACGCCGUUCGGAUCUGCAC	-0.0699
AGUCCUGUGCUACACAUCGUAUGUACCGAAUCAAAGUGUGUGUGUGUGUGUGUGUAAAAAAGUAUUAUGUUACGCCGUUCGGAUCUGCAC	0.834
GCAGGAAGUAAAAACAAAUGGAAAUGCUUCGGAUAGUGGCAGGGGUGGGGGUUGCUAAGGAAAGGGUGGGAUGGGAGUGGGUAUAGAGUU	0.736
UCAAGUCCUGUGCUACACAUCGUAUGUACCGAAUCGGAAAAAAAGGUUUGGUGGAAAGUAUUAUGUUACGCCGUUCGGAUCUGCACUUCC	-1.34
GUCCUGUGCUACACAUCGUAUGUACCGAAUCGGAAAAAAGGAAAAAAGGGAAAAAAGGGAAAGUAUUAUGUUACGCCGUUCGGAUCUGCA	-1.69
UUAGAUGAGUGACCGAGGAGGUGGCGUUCCUUUGAGGAAAAUUGACAGACUUUUCAACUACAUGUAUUCAACUGCACCAAGACCUCGUGU	-1.46
GCAGGAAGUAAAAACAAAUGGAUAUGCUUCGGAUAGUGGCAGGGGUGGGGGUUGCUAAGGAAAGGGUGGGAUGGGAGUGGGUAAAGAGUU	2.67
UGUGCUACACAUCGUAUGUACCGAAUCGGGGAAAAAAAGGGGUUUUUUUGGGGUUUUUGGGGAAAGUAUUAUGUUACGCCGUUCGGAUCU	0.57
UCCUCAAGUCCUGUGCUACACAUCGUAUGUACCGAAUCGGGAGGGAGGGAGGAAAGUAUUAUGUUACGCCGUUCGGAUCUGCACUUCCAG	2.56
AGUCCUGUGCUACACAUCGUAUGUACCGAAUCGGGGAAAAGGGGAAAAGGAAAAGGGAAAGUAUUAUGUUACGCCGUUCGGAUCUGCACU	-1.23
UGGGAGGUGGAUUUUGUUUAUUUUUUUAGCUCAUUUCCAGGGGUGGGAAUUUUUUUUUAAUAUGUGUCAUGAAUAAAUUUGUUUUUGAAA	2.72

Sample 3 — method: protein-binding microarray; molecule type: double-stranded DNA, one strand shown; sample: in vitro; concentration: not given; direction: higher = stronger binding
Target: Hepatocyte nuclear factor 3-beta, forkhead domain (FOXA2, Homo sapiens, UniProt Q9Y261, residues 142-269)
Notes: k-mer, scored over probes, only values ≥0.25
Construct (chain): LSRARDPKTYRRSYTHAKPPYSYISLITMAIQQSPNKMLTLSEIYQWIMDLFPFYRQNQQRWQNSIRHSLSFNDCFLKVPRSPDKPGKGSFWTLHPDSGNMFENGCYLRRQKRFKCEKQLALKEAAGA
Oligonucleotide	E-score
TAGTATCA	0.253
AATAGTAA	0.288
CTATATAA	0.292
TAAAGTTA	0.278
ACTTATAT	0.332
ACGTTGAT	0.314
AATAATGT	0.324
GTCACTAA	0.266
TACAAAGA	0.273
CACTCATA	0.321
ATTATTTG	0.369
ATATACAA	0.376
ACTAATAA	0.308
TATAAATA	0.331
ATTTGATA	0.282
ACGATGTA	0.301
ATAAAGTA	0.342
ATCTTCAA	0.266
ACTAATAC	0.273
AATTTATG	0.252
AAATCGTT	0.254
GACATAAC	0.299
AAATACAT	0.309
ACTGTTTA	0.38
ATTTTACA	0.25

Sample 4 — method: protein-binding microarray; molecule type: double-stranded DNA, one strand shown; sample: in vitro; concentration: 250 nM; notes: 60-bp whole probe; with: salmon DNA 0.4 mg/ml; baseline: random background probes; direction: higher = stronger binding; constant ends, left off below: GCCTAGCAC … GTCTTGATTCGCTTGACGCTGCTG
Target: Interferon regulatory factor 7, full length, phosphomimetic (IRF7, Homo sapiens, UniProt Q92985, residues 1-503, S101K/S471D/S472D/S475D/S476D/S477D/S483D/S484D/S487D)
Construct (chain): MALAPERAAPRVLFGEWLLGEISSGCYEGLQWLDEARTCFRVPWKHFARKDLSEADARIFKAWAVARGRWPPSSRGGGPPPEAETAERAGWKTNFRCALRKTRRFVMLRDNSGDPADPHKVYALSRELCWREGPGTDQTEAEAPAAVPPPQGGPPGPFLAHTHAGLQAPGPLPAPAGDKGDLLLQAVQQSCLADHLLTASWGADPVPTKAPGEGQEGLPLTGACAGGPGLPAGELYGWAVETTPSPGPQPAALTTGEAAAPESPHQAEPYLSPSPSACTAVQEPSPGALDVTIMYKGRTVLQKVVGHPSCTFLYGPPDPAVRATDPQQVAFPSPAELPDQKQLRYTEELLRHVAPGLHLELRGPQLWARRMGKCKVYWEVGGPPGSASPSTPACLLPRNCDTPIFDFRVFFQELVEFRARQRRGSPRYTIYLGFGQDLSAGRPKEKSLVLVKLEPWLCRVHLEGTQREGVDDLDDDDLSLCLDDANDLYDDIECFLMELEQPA
Oligonucleotide	log fluorescence [z-score]
GAGGGTATCGACACTGGGGACGTGCTA	-0.578
GACGATATCAGTCACGAGACGTGCTAG	0.0517
GACGGTTCCATTTTCCTGACGTGCTAG	2.16
CCAGGGCTGCCAGCCTCCTCGTGCTAG	-0.864
GACGGTTTCCTTTCCCTGAAGTGCTAG	5.48
AGTTTTTCATTTTTTTTCATGTGCTAG	1.18
TCAATATTCACTATAGTACTGTGCTAG	0.659
TCAGTTCTGATCCTTCCCACTGTGCTA	0.75
TCAGCTTTCATTTATTTACTGTGCTAG	0.199
GACGATTTCAGCATCGAGACGTGCTAG	0.138
TCATGTTTCCTTGTACGACTGTGCTAG	1.59
TTAGATTCCAGTTACGATTAGTGCTAG	4.22
ATCTTCATGAAATTTTAGTAAGTGCTA	0.0259
TTGAAAAAATATTTATTTCAGTGCTAG	-0.126
GACGGTTTCCTACTTCTGACGTGCTAG	1.85
GACGGTATCGCCTATCGGGACGTGCTA	-0.388
GACGGCATCGGTCTCGGGACGTGCTAG	-0.259
TTAGGACGGCTTCTCCTTTAGTGCTAG	-0.143
TTAGATCTCAGTATCGACTAGTGCTAG	0.248
GACGGTAACGGGTATCGGGACGTGCTA	-0.48
TTAGGTCTCGGTTTCGGCTAGTGCTAG	7.54

A few entries again (sample 3):
Oligonucleotide	E-score
TACAAAGA	0.273
CACTCATA	0.321
ATTATTTG	0.369
ATATACAA	0.376
ACTAATAA	0.308
TATAAATA	0.331
ATTTGATA	0.282
ACGATGTA	0.301
